Published values from different studies.
Numbered parts are unrelated; each lists some results of a single study.

Series 1
Target: Histone acetyltransferase KAT6A, winged helix 2, GST fusion (KAT6A, Homo sapiens, UniProt Q92794, residues 85-181)
Method: protein binding microarray
Molecule type: double-stranded DNA, one strand shown
Matrix: in vitro
Concentration: not given
Setting: 8-mer, flanks averaged, mean of 2 arrays, mostly near background
Reference: not given
Direction: higher = stronger binding
Quantity: E-score
Construct (chain): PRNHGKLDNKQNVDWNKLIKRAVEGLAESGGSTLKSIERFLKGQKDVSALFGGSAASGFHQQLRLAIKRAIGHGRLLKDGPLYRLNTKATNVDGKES
ACATCCCA: -0.14
AGTGTGTA: 0.0467
ATCAGTAC: 0.0208
CGTCCCCC: 0.011
CGGATACG: -0.059
ATATTTCC: -0.0601
CAAAGTAA: -0.00912
AAAACACA: 0.00372
AGGTTCGA: 0.0203
ATACGGCG: -0.0279
AGCACAAT: 0.059
GAGCCAAA: -0.0666
ACCCGGGA: 0.231
ACTTATAG: -0.194
CTCATGAC: 0.0014
TCCACGAA: 0.208
CAACCGAG: 0.196
CCGCTACG: 0.0517
ATAACTTA: 0.0712
TGGAGCAA: 0.122

Series 2
Target: Centromere-binding protein 1, full length, N-terminal tag (CBF1, Saccharomyces cerevisiae, UniProt P17106, residues 1-351)
Chain of UniProt P17106 (whole entry, looked up): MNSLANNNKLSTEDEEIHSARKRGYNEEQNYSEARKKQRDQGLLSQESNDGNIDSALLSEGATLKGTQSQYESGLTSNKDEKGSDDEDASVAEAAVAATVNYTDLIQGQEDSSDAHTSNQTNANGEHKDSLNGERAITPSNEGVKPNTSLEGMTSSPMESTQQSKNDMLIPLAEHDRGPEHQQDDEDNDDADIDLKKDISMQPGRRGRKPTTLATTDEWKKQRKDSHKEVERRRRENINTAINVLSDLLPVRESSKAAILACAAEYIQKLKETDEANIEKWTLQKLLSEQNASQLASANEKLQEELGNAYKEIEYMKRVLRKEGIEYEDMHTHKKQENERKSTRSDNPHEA
Method: protein-binding microarray
Molecule type: double-stranded DNA, one strand shown
Matrix: in vitro
Concentration: 0.8 µM
Setting: whole 60-bp probe, no competitor
Direction: higher = stronger binding
Quantity: fluorescence intensity
Shared flanks, not repeated: … GTCTTGATTCGCTTGACGCTGCTG
GAAGCTGGGTTATTAAACGTGGAACTTTGGAAATAG: 574 a.u.
CTAGATAGTTGTGCCTGTACCACGTGAGAAGGCTTC: 7050 a.u.
TGTACGAAGCTATACAGCATGATTATAGTAGTTAGG: 525 a.u.
CTAAAACTTGAAAGTCTGGTGAGATTAGATATCTTC: 490 a.u.
CCTAACTACTATAGCCAGGTGATATAGCTTCGTACA: 650 a.u.
GAATTCTCTTGAGGTCACATGATCGCAAAATGGTAG: 15100 a.u.
GAATGATTACTGGTTAACGTGCTTGAAGAAGAATAG: 722 a.u.
CTAAATTTTTACACTGGTGACAACCTTAATGGTTTC: 515 a.u.
CTAGCTTGCCCTTACATCAGAATTACCAAGCAATTC: 499 a.u.
GAATAATGAGGTGCTCACGTTTTGCAATGATGATAG: 786 a.u.
CTATTTGTACGTATTCACATGTCCTGGCGTGCGTTC: 753 a.u.
GAAAGAGAACATGATCACGATACACGACTAGCGTAG: 1610 a.u.
GAATACAGTTAGCTGCACATGTTTCTCGAATAGTAG: 686 a.u.
GAAATATGTAGTAATCACGTATGCAGACATTAATAG: 613 a.u.
CTAATTAATGTGCGCCACGTTTGACGTTTAAGTTTC: 530 a.u.
GAATCTATATCGGGAAACGTGATTGATTGCGCATAG: 1600 a.u.
GAATTTCTTTTTCATCAGGTACCATAATGAAAATAG: 578 a.u.
GAATAGAAGGGAAATCATATGAAAGAAAAGAAGTAG: 505 a.u.
CTAAATAAATAAAATCATCAGAATCATTCGTAATTC: 468 a.u.
GAATCTTAATTGTGTTATCACCTGCTATTTTTCTAG: 1250 a.u.
GAACGGCAAAACGTCAACACCACCTCTACATTTTAG: 504 a.u.
CTATATGCTTGCCCTTACATCAGAATTACCAAGTTC: 552 a.u.
CTAGCACCTCCTAACATCACCATACTACGTACATTC: 573 a.u.
CTAACACATCCCTAAACGAAGCCGCACAATCTTTTC: 526 a.u.
CTAACTTAGGATGCTGATGTCACATAAAGTCAGTTC: 552 a.u.

Series 3
Organism: Saccharomyces cerevisiae
Effect on: peptide binding
Method: yeast competitive growth sequencing
Molecule type: peptide
Strain: cyclin F-Cln2 fusion
Concentration: concentration not given
Setting: combined libraries, Cln2-subtracted
Direction: direction not given
Quantity: binding score
GSPLKKLFTSTGA: 1.54
GSPLKKLFTATGL: 1.66
GSPLKKLFTSTAL: 0.686

Series 4
Target: RNA binding protein fox-1 homolog 2, RRM domain, GST-SBP tag (RBFOX2, Homo sapiens, UniProt O43251-10, residues 100-194)
Method: RNA Bind-n-Seq
Molecule type: RNA
Matrix: in vitro
Concentration: 365 nM
Setting: natural RNA segment, single round, ends assumed
Reference: no-protein control
Direction: higher = stronger binding
Quantity: RBNS enrichment (R)
Shared flanks, not repeated: GGGAGUUCUACAGUCCGACGAUC … UGGAAUUCUCGGGUGCCAA
Residues (chain): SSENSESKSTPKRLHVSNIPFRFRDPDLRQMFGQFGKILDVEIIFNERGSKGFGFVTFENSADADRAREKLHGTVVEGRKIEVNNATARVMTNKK
AGGGCUGCAGCUGAGAGCAGACUGCUGAUUGGUGACUCUGGUCUGCCUAGCUUUUGCAACUCUUUAAGCUUACUGUGAUCACGUGCCCUCUCAGUAGGGGGCUUUUAGAG: 0.587
ACCCCAGAGUGUUUUCAGUGUGCCAGAGAAGCAGCUGUAGCGUUAGGACAUGAGCCUGUCUAGUGUUUCCUAGGAAAGGGAUAGUUUUCUGUUGGUAUAGCAUUUUCUAA: 2.27
AUGCACAUGGUUAAUGCACAUGUUACUUUUAAAUCAUUAGGAUAUCCCUCACCUGUUCCUGAUGAAUAAAAAGUGUGUUAAAGACCAAAAUUCUUGGCAUAAUAAUCAGC: 0.465
UGUUUUGUGAUAUUUUAUUGUAUAAACUGUUAAUGAGAGGCACAGCUAAUUGUACAUAUCAAUAUACAUUUAAAAUCUGGUAACACUGGUUAAAUAGCCCUUGAUGACUU: 0.477
CUGUGCCUCUUGUGAGGGCCAUUUGGGACCUCCCUGGGGCACUGCACAAUUGAUAGUGUACCAAUAGAGGGAGACUGGGCGAUCUGGAACAGCACGUGGUGGGGUCCUGC: 1.69
CUGGUAAAACAUAGGCUUUUCUGUUUAAUUAAGUAUUAGACCAGUCUGUAGAUAUAAUCUGAAAAGAUUGUAGGCAGUAAUGAAGACAGUUGGGGAAAGGAGAAGGCCCU: 0.537
UGGUGCUGUACAGAAGGCAUUAAACUAAUGUAAACUACAUCCUAUGUUUGGUUCAUUUGAAAUUUUGGAAUAAUUGUGAAUGUAUGAUAUUGUAAAAUUAAAAAAAUAUA: 0.948
CCAAUCUUUCAAAAUCUUGUCUUAGGGCUUGUGAGGAAUCAGAACUAACCCAGGACUCAGUCCUGCUUCUUUUGCCUCGAGUGAUUUUCCUCUGUUUUUCACUAAAUAAG: 0.24
UCUUCCCUUCCCUGAUGCCAGGGGCACCAGACUGAUUCUGAGGCACAAAUAAAAGCGGUUUCAAACCGAUGCAUUUCUACUUAACUUUAUUGGGGAGAAGUGCCCACAGG: 0.503
UGAGCACCGUGAGUUUGAUCUCGAGAUGAUCAUGUUUGAGCGAUGUAAAGUGCCCAAGAUCCUGCACCCAUAUCUUGGAACUUAUCUUUGUUCUACAUCAUUCUCUCUUG: 0.453
UUGAAACCUCUCUGAUGAAAGUGAAAAAUGUGGGUAGCUUAUACUUUCAAACUAAUGCCAGUGACUAGAGAGAGGUUUCAUUCAUGAUGUGUAUUUCCAAUUUGGUCUUC: 0.825
AGUAUGCUUUUAGUCUAAGAAAAGCACAGAUGGAGCAAUACUUUCCUUCUUUGAAGAGAAUCCCAAAAGUUAGUUCAUCUUAAAGUGCAAUAUUGUUUAAUCUUAAAACU: 0.519

Series 5
Target: Fragile X messenger ribonucleoprotein 1, C-terminal low-complexity region (Fmr1, Mus musculus, UniProt P35922)
Method: RNA Bind-n-Seq
Molecule type: RNA
Matrix: in vitro
Concentration: 200 nM
Setting: whole 134-nt RNA, ends assumed
With: 150 mM KCl
Reference: input library
Direction: higher = stronger binding
Quantity: log2 enrichment
Shared flanks, not repeated: GGGAGUUCUACAGUCCGACGAUC … UGGAAUUCUCGGGUGUCAAGG
AGUCCUGUGCUACACAUCGUAUGUACCGAAUCGGAAAAAAAGGAAAAAGGUUUUUGGAAAGUAUUAUGUUACGCCGUUCGGAUCUGCACU: -1.18
AAGUCCUGUGCUACACAUCGUAUGUACCGAAUCGGGAAAGGGAAAAAGGGAAAGGGAAAGUAUUAUGUUACGCCGUUCGGAUCUGCACUU: 0.113
CUCAAGUCCUGUGCUACACAUCGUAUGUACCGAAUCGGUUUUUGGAAAGGAGGAAAGUAUUAUGUUACGCCGUUCGGAUCUGCACUUCCA: -0.234
CAAGUCCUGUGCUACACAUCGUAUGUACCGAAUCGGCCCCGGGCCCCGGCCCCGGGAAAGUAUUAUGUUACGCCGUUCGGAUCUGCACUU: -0.449
UGCCAGGCCCACCCCCAGGUGUUCCCGCGCCUGGGGGCCCACCCCUGUCCACCGGACCUAUAGUGGACCUGCUCCAGUACAGCCAGAAGG: 0.47
UAGGGUUCAGGAUAAGUUUGAGGUGCUGAAUUACACAAGCAUUCCUAUCUUUCUCCCGGAAGUCACCAUUGGAGCUCAUCAGACUGACCG: -0.76
GGAUUGGUAGCUUAUGUCGAUCUUGAUGAAAGAGCAAUUGAUGCUCUCAGGGAAUUUAAUGAAGAAGGAGCUCUGUCUGUACUACAGCAG: -1.84
AAAAUUUCCAGUACCUUUGUCACAAUCCUAACACAUUAUCGGGAGCAGUGUCUUCCAUAAUGUAUAAAGAACAAGGUAGUUUUUACCUAC: -0.513
UGGCCCUCGUGGCAUGCGGGGAGGAAGAGGUGGCCUCAUGGAUCGUGGUGGUCCCGGUGGAAUGUUCAGAGGUGGCCGUGGUGGAGACAG: -0.0845
UCAAGUCCUGUGCUACACAUCGUAUGUACCGAAUCGGGUGGGUGGGUUUUUGGGAAAGUAUUAUGUUACGCCGUUCGGAUCUGCACUUCC: 1.02
UCCUCAAGUCCUGUGCUACACAUCGUAUGUACCGAAUCGGGUGGGUGGUGGGAAAGUAUUAUGUUACGCCGUUCGGAUCUGCACUUCCAG: 1.32
CUCAAGUCCUGUGCUACACAUCGUAUGUACCGAAUCGGGGCGGGCGGGGCGGGGAAAGUAUUAUGUUACGCCGUUCGGAUCUGCACUUCC: 0.868
UGGGAGGUGGAUUUUGUUUAUUUUUUUAGCUCAUUUCCAGGGGUGGGAAUUUUUUUUUAAUAUGUUUCAUGAAUAAAGUUGUUUUUGAAA: 0.0942
UCCUCAAGUCCUGUGCUACACAUCGUAUGUACCGAAUCGGGGCGGCGGCGGGAAAGUAUUAUGUUACGCCGUUCGGAUCUGCACUUCCAG: 0.325
